Published values pooled from the literature.
“And” joins repeats or separate records; there may be more than shown. ± marks the error that the study gave.

C[C@@H]1CN(c2c(F)c(N)c3c(=O)c(C(=O)O)cn(C4CC4)c3c2F)C[C@H](C)N1
heart rate (male Hartley guinea pigs, anaesthetized; intravenous, 3 mg/kg over 10 min, after infusion): 218 ± 0.3 beats/min

COc1ccc2[nH]c([S@+]([O-])Cc3ncc(CO)c(OC)c3C)nc2c1
AUC(0-8 h) (human, dried plasma spots; 5 mg racemic omeprazole; reference: baseline): 0.19 µM·h

CC1=NN(c2ccccc2)C(=O)C1
tissue concentration (rat Sprague-Dawley pups PN4, right cerebral cortex; intraperitoneal, 30 mg/kg, 1 h): 265 ± 57 ng/mL

CCN1CCN(Cc2ccc(NC(=O)c3ccc(C)c(NC(=O)c4cncc(-c5cccs5)c4)c3)cc2C(F)(F)F)CC1
plasma concentration (LC-MS/MS; C57BL/6 mouse, plasma; intraperitoneal, 15 mg/kg single dose, 2 h): 274 ng/mL and 266 ng/mL and 174 ng/mL

Cc1ccc(Sc2ccccc2N2CCNCC2)c(C)c1
participants with TEAE (item: Somnolence; healthy adult men; oral, 20 mg single dose, 10 day): 0%

O=C(O)CCc1cccc(O)c1
CSF concentration (human CSF; concentration not given, mean): not detected

O=C1CC[C@H](N2Cc3cc(N4CCN(CC5CCN(c6ccc([C@@H]7c8ccc(O)cc8CC[C@@H]7c7ccccc7)cc6)CC5)CC4)ccc3C2=O)C(=O)N1
recovery (rapid equilibrium dialysis; SD rat liver microsomes; 2.5 µM, 6 h): 116%

CCCC(CCC)C(=O)Oc1cccc(C(O)CCN)c1.O=CO (centres unmarked)
photopic S-cone ERG b-wave (Abca4-/-Rdh8-/- mice, photic damage; intraperitoneal, 10 mg/kg, 7 days, flash intensity 30): 50.1 µV and 52.1 µV and 60.8 µV and 59 µV and 47.4 µV and 48.5 µV and 54.6 µV and 51.9 µV

CN(CCC(=O)O)C(=O)c1ccc2c(c1)CC[C@@H]1[C@@H]2CC[C@]2(C)C(c3cncc(F)c3)=CC[C@@H]12
indirect bilirubin change (premenopausal women with endometriosis pain, serum; 60 mg twice daily, end of treatment, completers, mean; reference: baseline): 0.35 mg/dL

Oc1ccc([C@H]2COc3cc(O)ccc3C2)cc1
CSF concentration (human CSF; concentration not given, mean): not detected

CCOc1c([C@H](C)n2nc(C)c3c(N)ncnc32)cc(Cl)c(F)c1[C@@H]1CNC(=O)C1
share of ECG observations (item: ΔQTcF ≤ 30 ms; previously treated B-cell malignancy; oral, 30 mg once daily, overall population): 99.2%

OC[C@H]1O[C@@H](c2ccc(Cl)c(Cc3ccc(O[C@H]4CCOC4)cc3)c2)[C@H](O)[C@@H](O)[C@@H]1O
change in ALT (Japanese type 1 diabetes patients, blood; 10 mg, day 28; reference: baseline): 0 U/L

CCN1/C(=C/C(C)=O)Sc2ccc(F)cc21
QT interval (cynomolgus monkey; oral, 10 mg/kg, 6 h post-dose): 251 ± 34 ms

C[C@@H]1[C@H](O)[C@@H](C)/C=C/C=C/C=C/C=C/C=C/C=C/C=C/[C@H](O[C@@H]2O[C@H](C)[C@@H](O)[C@H](N)[C@@H]2O)C[C@@H]2O[C@](O)(C[C@@H](O)C[C@@H](O)[C@H](O)CC[C@@H](O)C[C@@H](O)CC(=O)O[C@H]1C)C[C@H](O)[C@H]2C(=O)O
EC50 (calcein leakage; liposomes; 50 min, room temperature): 7.1 µg/mL

O=C(Nc1nc2cccc(-c3ccc(CN4CCS(=O)(=O)CC4)cc3)n2n1)C1CC1
treatment-emergent adverse events (item: chills; human rheumatoid arthritis patients; oral, 30 mg once daily, 4 weeks, regardless of relatedness): 0%

Cl.[2H]C([2H])([2H])CC(=O)c1cnc(NC(=O)C2CC2)cc1Nc1cccc(-c2ncn(C([2H])([2H])[2H])n2)c1OC
half-life (human, non-fasted; oral, 30 mg twice daily, day 14, multiple dose, tablet, geometric mean): 7.6 h

CNC(=O)c1cc(Oc2ccc(NC(=O)Nc3cc(C(C)(C)C)nn3-c3ccc4ncccc4c3)c(F)c2)ccn1
patients with adverse events (item: any AESI, worst grade ≥2; human patients; oral, dose not given, high AUC(0-4 h) subgroup, cycles 1-2): 22%

CNC(=O)c1ccc(-c2cnc3ncc(Cc4ccc5ncccc5c4)n3n2)cc1F
AST increased dose reduction/interruption (Japanese patients; oral, 400 mg, grade 3/4): 2%

Oc1ccc(/C=C/c2cc(O)cc(O)c2)cc1
LDL-C level (rat, azoxymethane-injected, blood; in vivo, 10 mg/kg, at sacrifice): 4 mg/dL and 3 mg/dL

C[C@@H](N)C1CCN(S(=O)(=O)c2cccc3cnccc23)CC1
TEAE incidence (item: Bradycardia; healthy volunteers; 150 mg, fed): 0%

O=C(NCc1ccc(CNCc2ccccc2)cc1)c1csc2nc[nH]c(=O)c12
EC50 (haemolysis; human red blood cells; 1 h, 37 °C): > 100 µM

Nc1nc2c(nc([N+](=O)[O-])n2[C@@H]2O[C@H](CO)[C@@H](O)[C@H]2O)c(=O)[nH]1
nucleoside remaining fraction (depurination, RP-HPLC; citrate-phosphate buffer 0.5 mM; 80 min, pH 2, 37 °C): 0.852

Cc1nc2cccc(OCC(C)(C)C(=O)NC(C)C)c2c(N)c1C(=O)O
Cmax ratio female over male (Sprague-Dawley rat, plasma; oral, 30 mg/kg, day 7, 7-day repeated dosing; reference: female over male): 1.04 ± 0.6

C[C@H](CS)C(=O)N1CCC[C@H]1C(=O)O
heart rate (male Hartley guinea pigs, anaesthetized; intravenous, 10 mg/kg group, baseline before infusion): 237 ± 0.9 beats/min

C=CCN1CC(=O)N2[C@@H](Cc3ccc(O)cc3F)C(=O)N(Cc3cccc(N4CC(N5CCN(CC)CC5)C4)n3)C[C@@H]2N1C(=O)NCc1ccccc1
treatment-related decreased appetite (advanced solid tumour patients; oral, 80 mg twice daily, any grade, dose-escalation): 0%

O=C(O)CCCOc1ccc([18F])cc1-c1cc(-c2ccccc2C(F)(F)F)n(-c2ccccc2)n1
radioactivity uptake (gamma counting; male ddY mice, heart; intravenous, 2.1 MBq, 60 min): 8.7 ± 2.84 SUV

CCC(C)n1ncn(-c2ccc(N3CCN(c4ccc(OCC5COC(Cn6cncn6)(c6ccc(Cl)cc6Cl)O5)cc4)CC3)cc2)c1=O (centres unmarked)
incidence of feeling hot (healthy human volunteers; oral, 200 mg, compound alone cohort): 0%

Cc1cc(C)c(CNC(=O)c2cc(Cl)c3c(c2C)O[C@@](C)([C@H]2CC[C@H](N(C)C)CC2)O3)c(=O)[nH]1
adverse event Diarrhea (relapsed/refractory NHL patients; oral, 200 mg once daily, onset after cycle 1 day 1): 45.8%

CN(C(=O)n1cnc(-c2cccnc2)c1)C1CCCCC1
tissue concentration (Wistar rat, midbrain; oral, 10 mg/kg, 24 h, single dose): 8.8 ± 0.3 ng/g

OC[C@H]1O[C@@H](c2ccc(F)c(Cc3cc4ccccc4s3)c2)[C@H](O)[C@@H](O)[C@@H]1O
hypoglycaemia-related adverse event (Japanese patients, type 1 diabetes; oral, 50 mg/day, onset day 6; reference: patients): 6%

Cc1cc(-c2nccc3c2ccn3CC(=O)Nc2ccc(-c3cnccn3)cn2)ccn1
respiratory thoracic mediastinal TEAEs (healthy human volunteers; oral, 7 mg single dose, single ascending dose): 16.7%

NC1(C(=O)N[C@@H](CCO)c2ccc(Cl)cc2)CCN(c2nc[nH]c3nccc2-3)CC1
Tmax (LC-MS/MS, non-compartmental; human patients, plasma; 160/480 mg cohort, cycle 0, geometric mean, with: enzalutamide): 2.3 h

CCC(=O)N(CCC(c1ccc2c(c1)OCO2)c1ccccc1OC)Cc1ccccc1 (centres unmarked)
CHOL (female athymic nude mouse, blood; i.p., 60 mg/kg twice daily, 14 days, group mean): 75.2 mg/dL

O=C1Cc2cc(CCN3CCN(c4nsc5ccccc45)CC3)c(Cl)cc2N1
heart rate (male Hartley guinea pigs, anaesthetized; intravenous, 1 mg/kg group, baseline before infusion): 192 ± 0.8 beats/min

C[C@@H](Nc1cc(F)cc(F)c1)c1cc(C(=O)N(C)C)cc2c(=O)cc(N3CCOCC3)oc12
treatment-related serious adverse events (item: macular rash; patients with advanced solid tumours; oral, dose not given, dose expansion phase I): 0%

O=C(O)CCC(=O)O.[2H]C([2H])([2H])Oc1cc(C)c2[nH]ccc2c1CN1CC[C@@H](C2CC2)C[C@H]1c1ccc(C(=O)O)cc1
subjects with sinus bradycardia TEAE (multiple ascending dose; healthy Chinese subjects; 300 mg once daily): 0%

Cc1c(C(=O)Nc2ccc(N3C[C@@H](C)O[C@@H](C)C3)nc2)cccc1-c1ccc(OC(F)(F)F)cc1
absorption rate constant (PK model; mouse; oral, 40 mg/kg/day): 0.112 h⁻¹

N#Cc1ccc2c(c1)[C@H]1CCCN(C(=O)c3ccc4[nH]cnc4c3)[C@H]1C2
androstenedione level (human, female; 80 mg, day 15): 7.9 nmol/L

Cc1nc(-c2ccc(OCC(C)C)c(C#N)c2)sc1C(=O)O
subjects with pyrexia (healthy Chinese subjects; oral, 40 mg, fed): 5%

CC(C)NC(=O)COc1cccc(-c2nc(Nc3ccc4[nH]ncc4c3)c3ccccc3n2)c1
AUC(0-tau) (human male, plasma; oral, 200 mg once daily, day 12, fed, geometric mean, with: dabigatran etexilate): 11000 ng·h/mL

O=C(O)c1ccc(O)c(OS(=O)(=O)O)c1
CSF concentration (human CSF; concentration not given, mean): not detected
